Published values of several laboratories.
Protocols differ between the studies behind these lines. “And” joins repeats or separate records; there may be more than shown. ± marks the error that the study gave.

SMILES = CN1CCC[C@@H](N2C(=O)c3cccc(N)c3C2=O)C1; cell line = RAW264.7; conditions = 10 µM, added: LPS 10 ng/mL; quantity = viability; result = 100 ± 1%
SMILES = COc1cc(CNc2ccc(C(=O)O)cc2)cc(OC)c1O; cell line = HGF; test = cell viability, resazurin; conditions = 72 h, 10% FBS; quantity = IC50; result = > 100 µM
SMILES = CCc1ccc(NC(=O)Nc2c[nH]c3ccccc23)cc1; cell line = reporter cell clones; conditions = concentration not given, 6 h; quantity = viability; result = no effect
SMILES = CC(C)CC(=O)C(=O)[O-].[Na+]; cell line = HCT-8; test = Hoechst nuclei count; conditions = 1 mM, 24 h; scale = baseline: PBS; quantity = host cell number; result = 0.925 ± 0.111
SMILES = CSc1ccc(CNc2ccc(C(=O)O)cc2)cc1; cell line = HGF; test = cell viability, resazurin; conditions = 72 h, 10% FBS; quantity = IC50; result = > 100 µM
SMILES = CC1=CC[C@H]2[C@@H]([C@@H]1CC[C@H]1[C@]3(C)CC[C@H](O)C(C)(C)O[C@H]3CC[C@]1(C)O)C(C)(C)CC[C@]2(C)O; cell line = KB-C2 (P-gp overexpressing); test = cell viability, MTT; test system = DMEM with 10% bovine serum; conditions = 72 h; quantity = IC50; result = > 50 µM
SMILES = O=C(O)c1ccc(NCc2cccc([N+](=O)[O-])c2)cc1; cell line = HGF; test = cell viability, resazurin; conditions = 72 h, 10% FBS; quantity = IC50; result = > 100 µM
SMILES = COc1ccc(Nc2cnnc3cc(-c4cnc(N5CCN(C)CC5)nc4)ccc23)cc1Cl; cell line = C2C12 mouse myoblasts; test = cytotoxicity; quantity = TC50; result = > 10 µM
SMILES = COc1ccc(CNc2ccc(C(=O)O)cc2)cc1OC; cell line = HGF; test = cell viability, resazurin; conditions = 72 h, 10% FBS; quantity = IC50; result = > 100 µM
SMILES = CO[C@@]12[C@H](COC(N)=O)C3=C(C(=O)C(C)=C(N)C3=O)N1C[C@@H]1N[C@@H]12; cell line = RAW264.7; test = resazurin; test system = DMEM with 10% FBS; quantity = CC50; result = 2.71 ± 0.09 µM
SMILES = CCC(C)C(=O)C(=O)[O-].[Na+] (stereo not shown); cell line = HCT-8; test = Hoechst nuclei count; conditions = 1 mM, 24 h; scale = baseline: PBS; quantity = host cell number; result = 0.977 ± 0.068
SMILES = Nc1cccc2c1C(=O)N(C1CCCNC1)C2=O (stereo not shown); cell line = RAW264.7; conditions = 1 µM, added: LPS 10 ng/mL; quantity = viability; result = 100 ± 2%
SMILES = OC[C@H]1O[C@@H](c2ccc(Cl)c(Cc3ccc(O[C@@H]4CCOC4)cc3)c2)[C@H](O)[C@@H](O)[C@@H]1O; cell line = H9c2; test = CCK-8; conditions = 0.1 µM, added: glucose deprivation; scale = baseline: control; quantity = viability; result = 58.9 ± 4.9%
SMILES = COCC(=O)N1CCC[C@H](C(=O)NCc2nc(-c3cccnc3)cs2)C1; cell line = Jurkat; test = CellTiter-Glo; conditions = 72 h; quantity = CC50; result = > 50 µM
SMILES = COC[C@@H](CC(C)C)NC(=O)c1ccc(C)c(C)c1; cell line = primary human lymphocytes; conditions = 158 µg/mL, 20 h; quantity = mitotic index; result = 6.3
SMILES = COCC(=O)N1CCC[C@H](C(=O)NCc2nc(-c3ccc(OC)cc3)cs2)C1; cell line = Jurkat; test = CellTiter-Glo; conditions = 72 h; quantity = CC50; result = > 50 µM
SMILES = OC[C@H]1O[C@@H](c2ccc(Cl)c(Cc3ccc(OC4CCOCC4)cc3)c2)[C@H](O)[C@@H](O)[C@@H]1O; cell line = H9c2; test = CCK-8; conditions = 0.1 µM, added: glucose deprivation; scale = baseline: control; quantity = viability; result = 53.6 ± 4.51%
SMILES = CN(C)c1ccc(CNc2ccc(C(=O)O)cc2)cc1; cell line = HGF; test = cell viability, resazurin; conditions = 72 h, 10% FBS; quantity = IC50; result = > 100 µM
SMILES = COc1ccc(Nc2cnnc3cc(-c4ccc(S(=O)(=O)N5CCN(C)CC5)cc4)ccc23)nc1; cell line = C2C12 mouse myoblasts; test = cytotoxicity; quantity = TC50; result = > 10 µM
SMILES = Cc1cc(Nc2ccc(S(F)(F)(F)(F)F)cc2)n2nc(C(C)(F)F)nc2n1; cell line = Jurkat; test system = culture medium; conditions = 20 µM, 48 h; quantity = free drug concentration; result = 2400 nM
SMILES = C[n+]1cc(NC(=O)c2ccc3ccc4ccc(C(=O)Nc5cc6ccccc6[n+](C)c5)nc4c3n2)cc2ccccc21; cell line = MA104; test = cytotoxicity, resazurin; conditions = 5 days; quantity = CC50; result = 52 ± 10 µM
SMILES = COc1ccc(NC(=S)N/N=C/c2cccc3cc4ccccc4nc23)cc1; cell line = HeLa; test = annexin V/PI; conditions = IC25, 48 h, added: NAC; quantity = viable cells; result = 82.3 ± 2.1%
SMILES = COc1cnc(Nc2cnnc3ccc(-c4ccc(N5CCN(C)CC5)cc4)cc23)nc1; cell line = C2C12 mouse myoblasts; test = cytotoxicity; quantity = TC50; result = 6.4 µM
SMILES = C[C@H]1O[C@@H](O[C@H]2[C@@H](O)C[C@H](O[C@H]3[C@@H](O)C[C@H](O[C@H]4CC[C@@]5(C)[C@H](CC[C@@H]6[C@@H]5C[C@@H](O)[C@]5(C)[C@@H](C7=CC(=O)OC7)CC[C@]65O)C4)O[C@@H]3C)O[C@@H]2C)C[C@H](O)[C@@H]1O; cell line = MDCK-II wild type; quantity = Papp B-A; result = 4.5 ×10⁻⁶ cm/s
SMILES = CN1CCC[C@H]1C(=O)O; cell line = HCT-8; test = Hoechst nuclei count; conditions = 1 mM, 24 h; scale = baseline: PBS; quantity = host cell number; result = 0.953 ± 0.083
SMILES = C=C1C(=O)O[C@H]2[C@H]1CC/C(C)=C/CC[C@@]1(C)O[C@@H]21; cell line = THP-1 ASC-GFP monocytes; test = MTT; conditions = 24 h; quantity = maximum tolerated dose; result = 3.11 µg/mL
SMILES = CC(=O)N[C@@H](CCCN)C(=O)O; cell line = HCT-8; test = Hoechst nuclei count; conditions = 1 mM, 24 h; scale = baseline: PBS; quantity = host cell number; result = 1.01 ± 0.043
SMILES = Nc1ncnc2c1ncn2C1CCCC1; cell line = NCI-H460; conditions = up to 100 µM, 8 days; scale = baseline: vehicle; quantity = viability; result = > 80%
SMILES = COc1cc2ncnc(Nc3ccc(Oc4ccccc4)cc3C)c2cc1OC.O=C(O)C(F)(F)F; cell line = SK-MEL-2 (NRAS Q61R); test = resazurin; conditions = concentration not given, 72 h, added: trametinib 0 nM; quantity = viability fraction; result = 0.978 and 0.913 and 0.972 and 0.925 and 0.992 and 0.996 and 1.01 and 0.988
SMILES = Cn1nc2c(=O)n(C3CC3)ccc2c1[C@](O)(c1cnc(C(F)(F)F)c(Cl)c1)C(F)(F)F; cell line = Jurkat; test = CellTiter-Glo; quantity = CC50; result = 14 ± 0.71 µM
SMILES = Cc1cc(C)c(NC(=O)CN(CC(=O)[O-])CC(=O)[O-])c(C)c1Br.Cc1cc(C)c(NC(=O)CN(CC(=O)[O-])CC(=O)[O-])c(C)c1Br.[99Tc+4]; cell line = human sandwich-cultured hepatocytes; quantity = biliary clearance; result = 5.8 ± 2.4 mL/min/kg
SMILES = CNc1ccc([N+](=O)[O-])cc1-n1cnc(-c2ccc(C(F)(F)F)cc2)c1; cell line = RAW264.7; conditions = up to 100 µM, 24 h; quantity = viability; result = not toxic
SMILES = Cn1nc2c(=O)n(C3CC3)ncc2c1[C@](O)(c1cnc(C(F)(F)F)c(Cl)c1)C(F)(F)F; cell line = Jurkat; test = CellTiter-Glo; quantity = CC50; result = 43 ± 4.2 µM
SMILES = CN1CCN(c2ncc(-c3ccc4nncc(Nc5ncc(Cl)cn5)c4c3)cn2)CC1; cell line = C2C12 mouse myoblasts; test = cytotoxicity; quantity = TC50; result = 2.9 µM
SMILES = O=C(O)c1ccc(NCc2cccc(C(F)(F)F)c2)cc1; cell line = HGF; test = cell viability, resazurin; conditions = 72 h, 10% FBS; quantity = IC50; result = > 100 µM
SMILES = CCOCC(=O)N1CCC[C@H](C(=O)NCc2nc(-c3ccc(C)nc3)cs2)C1; cell line = Jurkat; test = CellTiter-Glo; conditions = 72 h; quantity = CC50; result = > 50 µM
SMILES = Cn1nc2c(=O)n(C3CC3)ncc2c1[C@](N)(c1ccc(C(F)(F)F)c(Cl)c1)C1CC1; cell line = Jurkat; test = CellTiter-Glo; quantity = CC50; result = 19 ± 2.8 µM
SMILES = Nc1cccc2c1C(=O)N(C1CCCN(C(=O)C(F)(F)F)C1)C2=O (stereo not shown); cell line = RAW264.7; conditions = 10 µM, added: LPS 10 ng/mL; quantity = viability; result = 105 ± 1%
SMILES = CCc1c(-c2ccccc2)c(-c2ccccc2)nn1-c1ccccc1-c1cccc(OCC(=O)O)c1; cell line = mouse bone marrow macrophages; test = CCK-8; conditions = 50 µM, 4000 cells; scale = baseline: untreated; quantity = viability; result = 77.6% and 60% and 58.8% and 68.6% and 77.9% and 63.7%
SMILES = CC(O)CN (stereo not shown); cell line = HCT-8; test = Hoechst nuclei count; conditions = 1 mM, 24 h; scale = baseline: PBS; quantity = host cell number; result = 0.968 ± 0.019
SMILES = O=C(O)c1ccc(NCc2ccc(Br)cc2)cc1; cell line = HGF; test = cell viability, resazurin; conditions = 72 h, 10% FBS; quantity = IC50; result = > 100 µM
SMILES = CC(=O)N[C@@H](CC(=O)O)C(=O)O; cell line = HCT-8; test = Hoechst nuclei count; conditions = 1 mM, 24 h; scale = baseline: PBS; quantity = host cell number; result = 0.987 ± 0.037
SMILES = CC(C)C[C@H](NC(=O)OCc1ccccc1)C(=O)N[C@@H](Cc1ccccc1)C(=O)NN(CC(C)C)C(=O)C=O; cell line = primary NK cells, healthy donors; test = cell viability, MTS; test system = serum-free medium; conditions = 48 h; quantity = CC50; result = > 100 µM
SMILES = N[C@@H](CCCCNC(=O)CCCC[C@@H]1SC[C@@H]2NC(=O)N[C@@H]21)C(=O)O; cell line = MDBK; test = streptavidin staining; conditions = 10 µM, 1 h; quantity = cellular uptake; result = not detected
SMILES = O=C([O-])[C@@H](O)CO.[Na+]; cell line = HCT-8; test = Hoechst nuclei count; conditions = 1 mM, 24 h; scale = baseline: PBS; quantity = host cell number; result = 0.997 ± 0.064
SMILES = COc1ccc(Nc2cnnc3cc(-c4cnc(N5CCCN(C)CC5)nc4)ccc23)cc1Cl; cell line = C2C12 mouse myoblasts; test = cytotoxicity; quantity = TC50; result = 2.3 µM
SMILES = Cc1ncc(CO)c(CN)c1O.Cl.Cl; cell line = HCT-8; test = Hoechst nuclei count; conditions = 1 mM, 24 h; scale = baseline: PBS; quantity = host cell number; result = 1.01 ± 0.03
SMILES = Cc1cc(C(=O)NC(C)(C)COc2cccc3c2C(N)=NS(=O)(=O)N3)cc(C)n1; cell line = human peripheral blood lymphocytes; test = CBPI, preliminary test; conditions = 0.6 µg/mL, 4 h; scale = baseline: vehicle control; quantity = cytotoxicity; result = -3%
SMILES = C/C(O)=C(\C#N)C(=O)Nc1ccc(C(F)(F)F)cc1; cell line = Jurkat; test system = culture medium; conditions = 3 µM, 48 h; quantity = free drug concentration; result = 780 nM
SMILES = O=C(O)c1ccc(NCc2cc(Br)ccc2O)cc1; cell line = HGF; test = cell viability, resazurin; conditions = 72 h, 10% FBS; quantity = IC50; result = > 100 µM
SMILES = N=C(CCl)NCCC[C@H](NC(=O)c1ccc2cc(O)ccc2c1)C(=O)NCc1ccccc1; cell line = A549 and MDA-MB-231; test = MTT; conditions = 48 h, 10% FBS; scale = baseline: CC50 over PAD4 IC50; quantity = therapeutic index; result = > 400 fold
SMILES = Cc1ccc(CNC(=O)Cn2cc(CSc3nc4ccccc4[nH]3)nn2)cc1; cell line = HEK293; test = MTT; conditions = 250 ppm; quantity = viability; result = 9.86%
